Results collected from several papers.
Each line is one published result; not all experiments were run side by side. Values joined by “and” are separate records of one study, mostly repeats; a detail may differ. Numbers after ± are the reported error.
Kir3.1/Kir3.4: Kir3.1/Kir3.4 (Homo sapiens, UniProt P48544+P48549)
pyrD: Dihydroorotate dehydrogenase (quinone) (pyrD, Acinetobacter baumannii, UniProt B7GZW7)
PTH1R: Parathyroid hormone/parathyroid hormone-related peptide receptor (PTH1R, Homo sapiens, UniProt Q03431)
T1: ssDNA, aptamer; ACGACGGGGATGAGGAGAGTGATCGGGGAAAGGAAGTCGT

| SMILES | target | test | system | conditions | scale | measurement | value |
| --- | --- | --- | --- | --- | --- | --- | --- |
| Nc1ncnc2c1ncn2[C@@H]1O[C@H](C[C@@H](N)CC[C@H](N)C(=O)O)[C@@H](O)[C@H]1O | O-methyltransferase (Sorghum bicolor, UniProt A0A1B6PFV1) | ITC |  | added: PTR+ |  | -TΔS | 2.74 kcal/mol |
| NCCCCC(=O)O | SLC6A6 (Homo sapiens, UniProt P31641, Y138A) | binding, microscale thermophoresis |  | 43.2 nM, fitted curve | higher = more binding | fraction bound | 0 |
| N[C@@H](CC(=O)Nc1ccc2ccccc2c1)C(=O)O | rat aminopeptidase III | substrate |  | concentration not given, pH 7.0 |  | hydrolysis | inactive |
| NC/C(=C\F)COc1cccc(Cn2c(=S)[nH]c(=O)c3[nH]cnc32)c1 | Amine oxidase [copper-containing] 3 (Rattus norvegicus, UniProt O08590) |  | rat adipose tissue | 3 µM |  | inhibition | 108% |
| CCCCCCCCCCc1ccc([C@H]2CC[C@H]([N+](C)(C)CCC)CC2)cc1.[I-] | SPHK2 (Homo sapiens, UniProt Q9NRA0) | inhibitor, radiometric flash-plate | cell lysate | added: sphingosine 5 µM |  | Ki/Km ratio | 8.6 |
| C=CC(=O)N1CCC(C(=O)NCC(=O)N2CCN(c3nc(-c4cnc(N)nc4C(F)F)nc(N4CCOCC4)n3)CC2)CC1 | PIP5K1C (Homo sapiens, UniProt O60331) | KINOMEscan |  | 1 µM |  | remaining binding | 85% |
| CCc1cc(NC(=O)COc2cccc(Cl)c2Cl)n(C2CCOCC2)n1 | Kir3.1/Kir3.4 | thallium flux, activator | HEK293 |  | baseline: standard compound | Emax | 61% |
| COc1cc(O)c2c(c1)oc(=O)c1c3cc(O)c(O)cc3oc21 | MAL12 (Saccharomyces cerevisiae S288c, UniProt P53341) |  |  | added: p-nitrophenyl glucoside | baseline: acarbose IC50 over compound IC50 | potency ratio | ~17 fold |
| C=CC(=O)N1CCC(COCC(=O)N2CCN(c3nc(-c4cnc(N)nc4C(F)F)nc(N4CCOC[C@@H]4C)n3)CC2)CC1 | BRSK1 (Homo sapiens, UniProt Q8TDC3) | KINOMEscan |  | 1 µM |  | remaining binding | 100% |
| O=C(COP(=O)(O)O)[C@@H](O)[C@H](O)[C@H](O)COP(=O)(O)O | HDAC2 (Homo sapiens, UniProt Q92769) | thermal proteome profiling | HepG2 cell lysate | concentration not given, 57 over 37 °C, mean | baseline: compound over control | thermal stability ratio | 0.505 |
| Nc1ncnc2c1ncn2[C@@H]1O[C@H](COP(=O)(O)CP(=O)(O)OP(=O)(O)O)[C@@H](O)[C@H]1O | P2X purinoceptor 1 (P2RX1, Homo sapiens, UniProt P51575, E122A) | calcium influx |  | 10 µM | baseline: ionomycin response | calcium influx | 95.2% and 100% and 94.3% |
| CC(=O)Nc1ccc(O)cc1 | BRD4 (Homo sapiens, UniProt O60885) | 19F NMR, item: tyrosine 118 |  | 48 µM | baseline: free protein | chemical shift change | -0.015 ppm |
| CCn1c(C(=O)N(C2CC2)C2CC2)cc2c3c(ncn3C)c(Nc3cc(C)n(C)n3)nc21 | Cytochrome P450 2J2 (CYP2J2, Homo sapiens, UniProt P51589) | substrate, item: metabolite M1 formation |  |  |  | Vmax | 0.5 pmol/min/pmol |
| C=CC(=O)N1CCC[C@@H](n2nc(-c3ccc(Oc4ccccc4)cc3)c3c(N)ncnc32)C1 | DYRK2 (Homo sapiens, UniProt Q92630) |  |  | 10 µM |  | remaining activity | 85.6% |
| CCN1CCC[C@H]1CNC(=O)c1c(O)c(Cl)cc(Cl)c1OC | Probable G-protein coupled receptor 173 (GPR173, Homo sapiens, UniProt Q9NS66) | β-arrestin recruitment, TANGO luminescence, item: GPR173 |  | concentration not given | baseline: basal luminescence | log2 fold change | 0.453 |
| Cc1cc(Nc2ccc(S(F)(F)(F)(F)F)cc2)n2nc(C(C)C)nc2n1 | pyrD | enzyme activity, inhibitor, colorimetric HTS, item: DCIP reduction |  | 3 µM | direction not given | robust Z-score | 19.1 |
| CN(C)C(=O)C(CCN1CCC(O)(c2ccc(Cl)cc2)CC1)(c1ccccc1)c1ccccc1 | Calcium-activated potassium channel subunit alpha-1, with LRRC26 γ1 subunit (KCNMA1, Homo sapiens, UniProt Q12791) | ion current, inside-out patch, fit of G-V curve | BKα/γ1 channel | 3 µM, added: nominally 0 Ca2+ |  | V1/2 | -1.85 mV |
| CC1=NN(c2ccc(F)cc2)C(=O)C1=NNc1ccc(S(N)(=O)=O)cc1 | bovine α-glucosidase | enzyme activity, inhibitor, glucose oxidase |  | 50 µg/mL, added: maltose |  | inhibition | 37.5% |
| Nc1ncnc2c1ncn2[C@@H]1O[C@H](COP(=O)(O)OP(=O)(O)OP(=O)(O)O)[C@@H](O)[C@H]1O | T1, ssDNA, aptamer | ITC |  |  |  | Kd | 1000 nM |

| SMILES | target | test | system | conditions | scale | measurement | value |
| --- | --- | --- | --- | --- | --- | --- | --- |
| CC1(C)CC2(C)OC(=O)NC2(C)c2ccccc21 (stereo not shown) | Protein transport protein Sec31A (SEC31A, Homo sapiens, UniProt O94979) | binding, affinity selection mass spectrometry |  |  | baseline: other proteins in batch | log fold enrichment | -0.048 |
| O=C(CCCCCCC(=O)Nc1ccccc1)NO | HDAC8 (Homo sapiens, UniProt Q9BY41) | ITC | triethanolamine buffer | pH 7.5 |  | TΔS | 0.08 kcal/mol |
| CC1=C(/C=C/C(C)=C/C=C/C(C)=C/C=O)C(C)(C)CCC1 | Rhodopsin (RHO, Bos taurus, UniProt P02699, G270S) | retinal entry, Trp FRET | lipid bicelles | 28 °C, G270S mutant | baseline: wild-type rhodopsin | relative kon | 1 ± 0.13 |
| CC(C)C[C@H](N)C(=O)O | snf (Aquifex aeolicus, UniProt O67854) | scintillation proximity |  | 10 nM LeuT |  | Bmax | 5680 ± 310 cpm/pmol LeuT |
| CN1CCN(c2cc(-c3ccncc3)c(-c3ccc4ccccc4c3)nn2)CC1 | PTH1R | agonist, FLIPR |  | 12.5 µM |  | activation | -6.2% |
| Nc1nc2c(ncn2[C@@H]2O[C@H](COP(=O)(O)O)[C@@H](O)[C@H]2O)c(=O)[nH]1 | GUK1 (Homo sapiens, UniProt Q16774, T83A) | binding, ITC |  |  |  | ΔG | -5.44 kcal/mol |
| CCCCCCCC/C=C\CCCCCCCC(=O)NCCc1ccc(O)c(O)c1 | Trpv1 (Mus musculus, UniProt Q704Y3, S511A) | ion current, agonist, whole-cell patch clamp |  | S511A |  | Hill coefficient | 3.47 ± 0.32 |
| CC1=NN(c2ccc(C)cc2)C(=O)C1=NNc1ccc(S(N)(=O)=O)cc1 | bovine α-glucosidase | enzyme activity, inhibitor, glucose oxidase |  | 50 µg/mL, added: maltose |  | inhibition | 32% |
| COc1cc(-c2cc(C(C)=O)n3ccccc23)c(OC)cc1Cn1ccnc1 | CREBBP (Homo sapiens, UniProt Q92793) |  |  |  |  | ΔTm | 5.5 °C |
| Nc1nc(=O)n([C@H]2C[C@H](O)[C@@H](CO)O2)cc1CSCC[C@H](N)C(=O)O | DNMT1 (Homo sapiens, UniProt P26358) | radiometric [3H]-SAM |  | concentration not given, added: SAM, poly(dI-dC) |  | inhibition type | inhibited |
| COCc1nc2nc(C)cc(Nc3ccc(S(F)(F)(F)(F)F)cc3)n2n1 | pyrD | enzyme activity, inhibitor, colorimetric HTS, item: DCIP reduction |  | 3 µM | direction not given | robust Z-score | 18.3 |
| CC[C@H](C)[C@H](NC(=O)[C@H](CCC(=O)O)NC(=O)[C@H](CO)NC(=O)[C@@H](NC(=O)[C@@H](N)CO)C(C)C)C(=O)N[C@@H](CCC(N)=O)C(=O)N[C@@H](CC(C)C)C(=O)N[C@@H](CCSC)C(=O)N[C@@H](Cc1c[nH]cn1)C(=O)N[C@@H](CC(N)=O)C(=O)N[C@@H](CC(C)C)C(=O)NCC(=O)N[C@@H](CCCCN)C(=O)N[C@@H](Cc1c[nH]cn1)C(=O)N[C@@H](CC(C)C)C(=O)N[C@@H](CC(N)=O)C(=O)N[C@@H](CO)C(=O)N[C@@H](CCSC)C(=O)N[C@@H](CCC(=O)O)C(=O)N[C@@H](CCCNC(=N)N)C(=O)N[C@H](C(=O)N[C@@H](CCC(=O)O)C(=O)N[C@@H](Cc1c[nH]c2ccccc12)C(=O)N[C@@H](CC(C)C)C(=O)N[C@@H](CCCNC(=N)N)C(=O)N[C@@H](CCCCN)C(=O)N[C@@H](CCCCN)C(=O)N[C@@H](CC(C)C)C(=O)N[C@@H](CCC(N)=O)C(=O)N[C@@H](CC(=O)O)C(=O)N[C@H](C(=O)N[C@@H](Cc1c[nH]cn1)C(=O)N[C@@H](CC(N)=O)C(=O)N[C@@H](Cc1ccccc1)C(N)=O)C(C)C)C(C)C | PTH1R | agonist, GloSensor | SGS-72 | 316 pM |  | maximum cAMP response | 62.1% |
| CCCc1ccc(S(=O)(=O)Oc2ccccc2NC(=O)c2ccc3ncccc3c2)cc1 | P2X purinoceptor 4 (P2RX4, Homo sapiens, UniProt Q99571) | calcium mobilization | MCF7 stably transfected | 100 µM, added: ATP 100 µM |  | fluorescence increase | 84.6 ± 0.47% |
| C[C@]12C[C@H](O)[C@H]3[C@@H](CCC4=CC(=O)CC[C@@]43C)[C@@H]1CC[C@@H]2C(=O)CO | CYP11B1 (Homo sapiens, UniProt P15538) | stopped-flow | nanodiscs | added: excess cyclodextrin |  | koff | > 6 s⁻¹ |
| O=c1nc(SCc2cc(F)cc(C(F)(F)F)c2)nc(SCc2csc3ccc(Cl)cc23)[nH]1 | TOP2A (Homo sapiens, UniProt P11388) | decatenation |  | 0.12 µM, replicate 2 |  | decatenated DNA | 0% |
| CCCC[C@H](NC(=O)[C@H](C)c1c(C)[nH]c2ccc(O)cc12)c1ncc(-c2cc3ccccc3nc2OC)[nH]1 | PTGER3 (Homo sapiens, UniProt P43115) |  |  | 10 µM |  | effect | 54% |
| O=C(COc1cc(Cl)ccc1Cl)NCc1cccs1 | Kir3.1/Kir3.4 | activator, thallium flux | HEK293 | concentration not given |  | activity | inactive |
| O=C1S/C(=C\c2ccc([N+](=O)[O-])cc2)C(=O)N1Cc1nc2ccccc2s1 | AKR1B1 (Homo sapiens, UniProt P15121) | enzyme activity, inhibitor |  |  |  | log IC50 | 3.3 log nM |
